Published values collected from several papers.
A part holds a random share of what one study measured. Changes are numbered by the printed parent chain.

Study 1
Target: Histone acetyltransferase KAT6A, winged helix 1, GST fusion (KAT6A, Homo sapiens, UniProt Q92794, residues 1-85)
Technique: protein binding microarray
Molecule type: double-stranded DNA, one strand shown
Medium: in vitro
Concentration: not given
Notes: 8-mer, flanks averaged, mean of 2 arrays, mostly near background
Baseline: not given
Direction: higher = stronger binding
Target sequence (chain): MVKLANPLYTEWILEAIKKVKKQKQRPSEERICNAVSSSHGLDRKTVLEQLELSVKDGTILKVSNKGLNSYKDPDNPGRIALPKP
Strand | E-score
AAAACATG | -0.0601
AACGGTCG | 0.175
CGCGAACA | 0.0902
AGATGGTG | -0.241
ATTACGCC | 0.067
CGCACGTC | 0.265
GAGGATCA | -0.119
CTAGCCGC | 0.356
AAAGGTTA | -0.0846
GGTACCTA | -0.0867

Study 2
Target: CCND1, cyclin fold, Cln2 fusion (human)
Technique: yeast growth competition, sequencing
Medium: yeast
Notes: weak parent motif
Baseline: not given
Direction: higher = stronger binding
Parent: RRM2 docking peptide (human); SKTARRIFQEPTE
Change | normalised enrichment score
SKTARRAFQEPTE [I7A] | 0.023
SKAARRIFQEPTE [T3A] | 0.204
SKTARAIFQEPTE [R6A] | 0.911
SKTARRIFQEATE [P11A] | 0.181
SKTAARIFQEPTE [R5A] | 0.308
SATARRIFQEPTE [K2A] | 0.322

Study 3
Target: Interferon regulatory factor 7, full length, phosphomimetic (IRF7, Homo sapiens, UniProt Q92985, residues 1-503, S471D/S472D/S475D/S476D/S477D/S483D/S484D/S487D)
Technique: protein-binding microarray
Molecule type: double-stranded DNA, one strand shown
Medium: in vitro
Concentration: 2200 nM top
Notes: 60-bp whole probe
Added: salmon DNA 0.4 mg/ml
Baseline: random background probes
Direction: higher = stronger binding
All sequences stand within: GCCTAGCAC … GTCTTGATTCGCTTGACGCTGCTG
Target sequence (chain): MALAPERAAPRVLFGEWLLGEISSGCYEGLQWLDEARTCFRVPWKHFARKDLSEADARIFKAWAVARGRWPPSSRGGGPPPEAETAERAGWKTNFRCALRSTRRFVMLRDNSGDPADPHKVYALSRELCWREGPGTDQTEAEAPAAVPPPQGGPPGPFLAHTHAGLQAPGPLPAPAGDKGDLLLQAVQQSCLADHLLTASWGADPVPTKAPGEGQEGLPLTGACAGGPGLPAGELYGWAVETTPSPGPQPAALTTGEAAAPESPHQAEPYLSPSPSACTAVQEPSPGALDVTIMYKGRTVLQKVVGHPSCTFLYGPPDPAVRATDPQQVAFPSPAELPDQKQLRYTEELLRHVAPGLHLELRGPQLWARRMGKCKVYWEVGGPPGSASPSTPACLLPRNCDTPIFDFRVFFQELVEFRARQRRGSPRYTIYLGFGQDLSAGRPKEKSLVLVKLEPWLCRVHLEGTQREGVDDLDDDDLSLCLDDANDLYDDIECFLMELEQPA
Strand | fitted relative affinity
GACGATATCAGGTATCGAGACGTGCTA | 0.226 z-score
TTAGATCTCACACTGGATTAGTGCTAG | 0.256 z-score
TCAAATTTACTTTCTACACTGTGCTAG | 1.65 z-score
GACGGTATCGACACTGGGGGCGTGCTA | 0.186 z-score
GACGCTATCGGTATCGGGACGTGCTAG | 0.707 z-score
GACGATATCCGTATCGAGACGTGCTAG | 1.28 z-score
GTCTGTTTGGGTCTTGTCTGGTGCTAG | 1.32 z-score
ACAGGTTCTCTTTTATTTTTGTGCTAG | 1.74 z-score
TTAGGTCTCGGGCTGGGTTAGTGCTAG | -0.345 z-score
TTAGGACTGGCGTATCGGTTAGTGCTA | -0.757 z-score
GACGGTGCCGGTTTCGGGACGTGCTAG | 2.26 z-score
GATTTTTTCTGCTTAGAGCTGTGCTAG | 1.41 z-score
GACGGTTTCAGTATCGGGACGTGCTAG | 2.66 z-score
TTAGGTCTCCTTTCCCTTTAGTGCTAG | 3.51 z-score

Single results of other studies
Substance | target | assay | system | setting | scale | endpoint | value
PhoQ, residues 284 288 289 292 302 303 NLALSC | PhoP, residues 12 14 15 18 19 TTLRV (Escherichia coli, UniProt P23836) | Sort-seq, measured: YFP reporter | E. coli | PhoQ-PhoP variant library, added: 10 µM Mg2+ | baseline: high Mg2+ state, higher = stronger signaling | fold induction | 5.28
